# Measurements from different studies.
# “And” joins repeats or separate records; there may be more than shown. Numbers after ± are the reported error.
# Chain of UniProt Q9UNQ0 (whole entry, looked up): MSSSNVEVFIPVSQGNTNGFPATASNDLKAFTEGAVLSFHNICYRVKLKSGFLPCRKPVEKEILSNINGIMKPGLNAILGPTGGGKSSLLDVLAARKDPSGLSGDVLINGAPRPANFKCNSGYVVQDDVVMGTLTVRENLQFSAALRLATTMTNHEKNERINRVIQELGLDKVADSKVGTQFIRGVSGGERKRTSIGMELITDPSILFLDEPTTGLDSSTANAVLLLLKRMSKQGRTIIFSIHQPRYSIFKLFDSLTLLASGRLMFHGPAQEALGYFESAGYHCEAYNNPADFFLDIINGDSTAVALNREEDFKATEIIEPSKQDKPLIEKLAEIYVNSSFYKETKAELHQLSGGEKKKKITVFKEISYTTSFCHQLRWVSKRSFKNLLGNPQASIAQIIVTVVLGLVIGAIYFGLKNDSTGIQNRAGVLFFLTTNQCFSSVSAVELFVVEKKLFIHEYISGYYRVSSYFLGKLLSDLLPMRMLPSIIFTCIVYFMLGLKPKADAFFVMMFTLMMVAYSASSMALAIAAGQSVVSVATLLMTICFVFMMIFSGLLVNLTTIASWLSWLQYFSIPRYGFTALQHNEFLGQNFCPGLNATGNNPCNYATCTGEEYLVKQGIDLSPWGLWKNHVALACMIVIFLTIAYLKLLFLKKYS
SMILES,target or system,test,system,setting,how to read,measurement,value
Cc1ccc(N2C[C@@H]3C[C@H]2CN3C)cc1C(=O)N[C@H](C)c1cc(-c2cnn(C)c2)nc2ccccc12,African green monkey cells,,,125 µM,,viability,1.63%
O=C(C=Cc1ccc(O)c(O)c1)OC1CC(O)(C(=O)O)CC(OC(=O)C=Cc2ccc(O)c(O)c2)C1O (stereo not drawn),Vero E6,,,50 µM,,cytotoxicity,0%
CCn1ccc(-c2cc([C@@H](C)NC(=O)c3cc(OC[C@@H]4CCN4C)ccc3C)c3ccccc3n2)n1,Vero E6,,,125 µM,,viability,2.54% and -0.149%
O=C1NC2(CC2)COc2ncc(F)cc2[C@H]2COCCN2c2ccn3ncc1c3n2,,,"Sprague-Dawley rat, female, blood","oral, 5 mg/kg/day, 4 weeks, end of recovery, subacute toxicity",,mean corpuscular haemoglobin,18.5 ± 0.8 pg
COc1ccc2c3c1O[C@H]1[C@H](O)CC[C@@]4(O)[C@@H](C2)N(C)CC[C@]314,,pH-potentiometric titration,,,relative to: O-methyl derivative,"Δlog K, isomerization effect",0.07 log units
Cc1ccc(OCCN(C)C)cc1C(=O)N[C@H](C)c1cc(-c2cnn(C(F)F)c2)nc2ccccc12,Vero E6,,,250 µM,,viability,-0.769% and -6.73%
CC(=O)NCCCC[C@@H]1NC(=O)[C@H](Cc2c[nH]c3c(C)cccc23)NC(=O)[C@H]([C@@H](C)O)NC(=O)[C@H](CC(N)=O)NC(=O)[C@@H](NC(C)=O)C(C)(C)SSC(C)(C)[C@@H](C(=O)N[C@@H](Cc2ccc(OCCN)cc2)C(=O)N[C@@H](Cc2ccc3ccccc3c2)C(=O)NC2(C(=O)N[C@@H](CCC(=O)O)C(=O)N[C@@H](CC(N)=O)C(=O)N[C@@H](Cc3cccnc3)C(=O)N(C)CC(N)=O)CCOCC2)NC1=O,"ABCG2 (Homo sapiens, UniProt Q9UNQ0)","transport, inhibitor",LLC-PK1 expressing ABCG2,"8.48 µM, 90 min, with: [3H]prazosin",,efflux ratio,10.8
CCn1ccc(-c2cc([C@@H](C)NC(=O)c3cc(N4CCN(C)CC4)ccc3C)c3ccccc3n2)n1,Vero E6,,,7.812 µM,,viability,91.5% and 88.5% and 91.9%
Cc1nc2cccc(OCC(C)(C)C(=O)NC(C)C)c2c(N)c1C(=O)[O-].[Na+],Escherichia coli,"reverse mutation, preincubation",WP2 uvrA,"0.32 mg/plate, with rat liver S9",,revertant colonies,39 ± 2 colonies/plate
Cc1ccc(N2CC3CN(C)CC3C2)cc1C(=O)N[C@H](C)c1cc(-c2cnn(C)c2)nc2ccccc12 (stereo partly drawn),African green monkey cells,,,125 µM,,viability,2.45%
CC(C)N1CN(C2c3ccccc3CCc3ccccc32)n2cc(C(=O)O)c(=O)c(O)c2C1=O,,,bovine cells,,,CC50,> 10 µM
COc1ccc2c3c1O[C@H]1[C@H](O)C=C[C@H]4[C@@H](C2)N(C)CC[C@@]341,,pH-potentiometric titration,,,relative to: O-methyl derivative,"Δlog K, isomerization effect",0.01 log units
Cc1ccc(OCCN(C)C)cc1C(=O)N[C@H](C)c1cc(-c2cnn(C3CNC3)c2)nc2ccccc12,Vero E6,,,7.812 µM,,viability,107% and 104%
Cc1ccn2c(-c3csc(Nc4ccccn4)n3)c(C)nc2c1,CHO,cytotoxicity,,3 days,,IC50,> 10 µM
C[C@@H](N1CN([C@H]2c3ccccc3CSc3ccccc32)n2cc(C(=O)O)c(=O)c(O)c2C1=O)C(F)(F)F,,,hamster cells,,,CC50,> 10 µM
Cc1ccc(OC[C@@H]2CCN2C)cc1C(=O)N[C@H](C)c1cc(-c2cnn(C)c2)nc2ccccc12,African green monkey cells,,,3.906 µM,,viability,101%
CN(C)CCCNC(=O)[C@@H]1NC(=O)[C@@H]2Cc3ccc(cc3)Oc3cc4cc(c3O)-c3ccc5c(c[nH]c5c3)C[C@@H](NC(=O)C(NC(=O)CCCCCN)c3ccc(O)cc3)C(=O)N[C@H](c3ccc(O)cc3)C(=O)N[C@H]4C(=O)N[C@@H](C(=O)N2C)c2ccc(cc2)Oc2cc1ccc2O (stereo partly drawn),human red blood cells,,,"512 µg/mL, 1 h, 37 °C, 1% DMSO",,hemolysis,0%
O=C1CC[C@@]2(O)[C@H]3Cc4ccc(O)c5c4[C@@]2(CCN3CC2CCC2)[C@H]1O5,,,octanol/phosphate buffer,"1 h, pH 7.45, ionic strength 0.15 M",,logD,1.29
COc1cc2c(cc1NC(=O)c1cncn1C)C[C@H]1[C@H]3CCCC[C@@]23CCN1C,,,"C57BL/6 mice, plasma","oral, 50 µg/g, 120 min",,plasma concentration,6980 ng/mL and 5750 ng/mL and 7060 ng/mL and 4630 ng/mL
O=C1CC[C@H]2[C@H]3Cc4ccc(O)c5c4[C@@]2(CCN3CCc2ccccc2)[C@H]1O5,,,octanol/buffer,"1 h, pH 7.4",,logD,1.69
CCn1ccc(-c2cc([C@@H](C)NC(=O)c3cc(OCCN(C)C)ccc3C)c3ccccc3n2)n1,Vero E6,,,125 µM,,viability,6.17% and 0.475% and 0.316%
CCCCCC1=C(NCC)C(=O)C(C/C=C(\C)CCC=C(C)C)=C(O)C1=O,human peripheral lymphocytes,,,"10 µg/mL, 3 h, without S9, harvest 27 h",,cytostasis,3%
COc1ccc2c3c1O[C@H]1[C@H](O)C=C[C@@]4(O)[C@@H](C2)N(C)CC[C@]314,,,octanol/buffer,"1 h, pH 7.4",,logD,-0.61
NC[C@]1(CC(=O)O)CC[C@@H]([18F])CC1,,"PET, one-tissue compartment model","rhesus monkey, amygdala",intravenous,,K1,0.001 mL/min/cm3

# A few entries again:
SMILES,target or system,test,system,setting,how to read,measurement,value
Cc1ccc(OC[C@@H]2CCN2C)cc1C(=O)N[C@H](C)c1cc(-c2cnn(C)c2)nc2ccccc12,African green monkey cells,,,3.906 µM,,viability,101%
COc1ccc2c3c1O[C@H]1[C@H](O)C=C[C@H]4[C@@H](C2)N(C)CC[C@@]341,,pH-potentiometric titration,,,relative to: O-methyl derivative,"Δlog K, isomerization effect",0.01 log units
O=C1NC2(CC2)COc2ncc(F)cc2[C@H]2COCCN2c2ccn3ncc1c3n2,,,"Sprague-Dawley rat, female, blood","oral, 5 mg/kg/day, 4 weeks, end of recovery, subacute toxicity",,mean corpuscular haemoglobin,18.5 ± 0.8 pg
Cc1ccn2c(-c3csc(Nc4ccccn4)n3)c(C)nc2c1,CHO,cytotoxicity,,3 days,,IC50,> 10 µM
